Results from different studies.
Lines come from different studies, so protocols differ.

CCC(CC)COC(=O)[C@H](C)N[P@](=O)(OC[C@H]1O[C@@](C#N)(c2ccc3c(N)ncnn23)[C@H](O)[C@@H]1O)Oc1ccccc1 — EC90 (Severe acute respiratory syndrome coronavirus 2; viral replication, inhibitor, qPCR; Vero C1008): 0.0835 µM
COc1ncc(-c2cn([C@@H]3O[C@](F)(CO[P@@](=O)(N[C@@H](C)C(=O)OC(C)C)Oc4ccccc4)[C@@H](O)[C@H]3O)cn2)c(OC)n1 — IC50 (Severe acute respiratory syndrome coronavirus 2; viral replication, inhibitor; A549-ACE2; 24 h): > 100 µM
CC(C)=CCc1c(O)ccc(C(=O)/C=C/c2ccc(O)cc2)c1O — inhibition (Severe acute respiratory syndrome coronavirus 2; cytopathic effect, inhibitor; Vero C1008; 25 µM): 0%
CCOc1nc(N)ncc1-c1cn([C@@H]2O[C@](F)(CO[P@@](=O)(N[C@@H](C)C(=O)OC(C)C)Oc3ccccc3)[C@@H](OC(=O)C(C)C)[C@H]2OC(=O)C(C)C)cn1 — IC50 (Severe acute respiratory syndrome coronavirus 2; viral replication, inhibitor; A549-ACE2; 24 h): 11.6 µM
Cn1cnc(Cn2c(=O)[nH]/c(=N\c3cc4cn(C)nc4cc3Cl)n(Cc3cc(F)c(F)cc3F)c2=O)n1 — inhibition (Severe acute respiratory syndrome coronavirus 2; viral replication; Vero C1008; 51.44 nM): 15%
COc1ncc(-c2cn([C@@H]3O[C@](F)(CO)[C@@H](O)[C@H]3O)cn2)cn1 — IC50 (Severe acute respiratory syndrome coronavirus 2; viral replication, inhibitor; A549-ACE2; 24 h): > 100 µM
Cn1cnc(Cn2c(=O)[nH]/c(=N\c3cc4cn(C)nc4cc3Cl)n(Cc3cc(F)c(F)cc3F)c2=O)n1 — patients with adverse event (human, normal renal function; oral, 375 mg, vessel puncture site haemorrhage TEAE, Severe severity): 0%
C=C[C@@](C)(/C=C/c1ccc(O)cc1)CCC=C(C)C — inhibition (Severe acute respiratory syndrome coronavirus 2; cytopathic effect, inhibitor; Vero C1008; 3.125 µM): 0%
O=C(Nc1ccccc1F)c1cc2c(=O)n3ccccc3nc2n1Cc1ccccc1 — EC90 (Severe acute respiratory syndrome coronavirus 2; viral replication, inhibitor, qPCR; Vero C1008): 3.6 µM
CNC(=O)[C@@H](NC(=O)[C@H](CC(C)C)[C@H](O)C(=O)NO)C(C)(C)C — viability difference (C2C12; 10 µM, added: GA venom; baseline: venom alone): 6.09%
Cc1ccc(Nc2ccnc(N3CCCC3C(=O)NCCCc3ccccc3)n2)cc1 (stereo not shown) — AC50 (SARS-CoV-2; cytopathic effect, cell-based CPE; USA_WA1/2020; round 1, 5-point dilution): 12.6 µM
Nc1ncnc2c([C@@H]3N[C@H](CO)[C@@H](O)[C@H]3O)c[nH]c12 — inhibition (Marburg virus; surface glycoprotein expression; HeLa, Musoke; 50 µM, 24 h): 61.3%
Cc1cc(NC(=O)c2cc3c(=O)n4cccc(C)c4nc3n2C)ccc1Br — EC90 (Severe acute respiratory syndrome coronavirus 2; viral replication, inhibitor, qPCR; Vero C1008): 1.41 µM
CCCCSCCCNC(=O)C1CCN(Cc2nc(-c3ccc(CC)cc3)oc2C)CC1 — efficacy (SARS-CoV-2; cytopathic effect; USA_WA1/2020; retest 8-point): 73%
O=C(O[C@@H]1Cc2c(O)cc(O)cc2O[C@@H]1c1cc(O)c(O)c(O)c1)c1cc(O)c(O)c(O)c1 — inhibition (Severe acute respiratory syndrome coronavirus 2; cytopathic effect, inhibitor; Vero C1008; 0.7812 µM): 0%
CC(=O)c1cccc(NC(=O)c2cc3c(=O)n4ccccc4nc3n2C)c1 — inhibition (Severe acute respiratory syndrome coronavirus 2; viral replication, inhibitor, qPCR; Vero C1008; 1 µM): 92.5%
O=C(/C=C/c1ccc(O)c(O)c1/C=C/c1ccc(O)c(O)c1)O[C@H](Cc1ccc(O)c(O)c1)C(=O)O — inhibition (Severe acute respiratory syndrome coronavirus 2; cytopathic effect, inhibitor; Vero C1008; 50 µM): 0%
CC[C@H](C)[C@H](NC(=O)[C@H](CC(C)C)NC(=O)[C@H](Cc1c[nH]c2ccccc12)NC(=O)[C@H](CCC(N)=O)NC(=O)[C@@H](NC(=O)[C@H](Cc1ccccc1)NC(=O)[C@H](C)NC(=O)[C@H](CCCCNC(=O)COCCOCCNC(=O)COCCOCCNC(=O)CC[C@H](NC(=O)CCCCCCCCCCCCCCCCCCC(=O)O)C(=O)O)NC(=O)[C@H](CCC(N)=O)NC(=O)[C@H](C)NC(=O)[C@@H](NC(=O)[C@H](CCCCN)NC(=O)[C@H](CC(=O)O)NC(=O)[C@H](CC(C)C)NC(=O)C(C)(C)NC(=O)[C@@H](NC(=O)[C@H](CO)NC(=O)[C@H](Cc1ccc(O)cc1)NC(=O)[C@H](CC(=O)O)NC(=O)[C@H](CO)NC(=O)[C@@H](NC(=O)[C@H](Cc1ccccc1)NC(=O)[C@@H](NC(=O)CNC(=O)[C@H](CCC(=O)O)NC(=O)C(C)(C)NC(=O)[C@@H](N)Cc1ccc(O)cc1)[C@@H](C)O)[C@@H](C)O)[C@@H](C)CC)[C@@H](C)CC)C(C)C)C(=O)N[C@@H](C)C(=O)NCC(=O)NCC(=O)N1CCC[C@H]1C(=O)N[C@@H](CO)C(=O)N[C@@H](CO)C(=O)NCC(=O)N[C@@H](C)C(=O)N1CCC[C@H]1C(=O)N1CCC[C@H]1C(=O)N1CCC[C@H]1C(=O)N[C@@H](CO)C(N)=O — subjects with adverse event (item: treatment-emergent decreased appetite; healthy subjects; 4.5 mg, multiple ascending dose): 83.3%
COc1ncc(-c2cn([C@@H]3O[C@](F)(CO[P@@](=O)(N[C@@H](C)C(=O)OC(C)C)Oc4ccccc4)[C@@H](OC(=O)C(C)C)[C@H]3OC(=O)C(C)C)cn2)c(OC)n1 — IC50 (Severe acute respiratory syndrome coronavirus 2; viral replication, inhibitor; A549-ACE2; 24 h): > 100 µM
